# Measurements of several laboratories.
# Each line is one published result; not all experiments were run side by side. Numbers after ± are the reported error.
# Chain of UniProt P51817 (whole entry, looked up): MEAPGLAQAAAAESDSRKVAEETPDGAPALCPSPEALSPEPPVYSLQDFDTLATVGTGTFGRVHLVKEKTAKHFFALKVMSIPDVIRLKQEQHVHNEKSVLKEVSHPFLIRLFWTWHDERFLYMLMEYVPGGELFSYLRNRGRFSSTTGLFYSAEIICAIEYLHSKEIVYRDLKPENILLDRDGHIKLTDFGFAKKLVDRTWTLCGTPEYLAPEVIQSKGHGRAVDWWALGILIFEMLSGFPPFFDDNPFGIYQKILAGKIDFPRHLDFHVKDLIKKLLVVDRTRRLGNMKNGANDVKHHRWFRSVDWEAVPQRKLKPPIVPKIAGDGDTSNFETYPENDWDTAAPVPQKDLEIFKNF
# Chain of UniProt Q9NYM4 (whole entry, looked up): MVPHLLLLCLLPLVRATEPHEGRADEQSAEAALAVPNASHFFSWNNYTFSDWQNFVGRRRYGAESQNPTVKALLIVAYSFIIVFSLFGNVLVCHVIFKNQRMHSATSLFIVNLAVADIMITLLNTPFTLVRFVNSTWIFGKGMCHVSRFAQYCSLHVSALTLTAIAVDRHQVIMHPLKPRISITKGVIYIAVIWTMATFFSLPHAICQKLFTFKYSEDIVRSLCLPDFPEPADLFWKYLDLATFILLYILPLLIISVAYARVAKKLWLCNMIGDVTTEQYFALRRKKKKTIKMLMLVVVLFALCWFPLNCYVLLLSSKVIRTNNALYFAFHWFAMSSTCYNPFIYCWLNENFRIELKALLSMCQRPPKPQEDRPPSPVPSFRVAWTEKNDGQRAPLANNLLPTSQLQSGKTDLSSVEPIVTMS
SMILES,target or system,assay,system,conditions,scale,endpoint,result
O=[N+]([O-])c1ccc(N2CCC(NCCC(O)c3ccc(F)c4ccccc34)CC2)c(C(F)(F)F)c1 (stereo not drawn),Salmonella typhimurium,SOS/umu test,TA1535/pSK1002,"0.031 mg/mL, 4 h, with S9, full range",,survival,79.6%
[Cl-].[Cl-].[Pt+2].[Ru+2].c1ccc(-c2nccnc2-c2ccccn2)nc1.c1cnc2c(c1)ccc1cccnc12.c1cnc2c(c1)ccc1cccnc12,Danio rerio,,embryos,"45 µM, 96 h",,survival rate,70 ± 2.8%
CNC(=O)c1c(N(C)N=O)ncn1C,Salmonella typhimurium,"mutagenicity, Ames plate incorporation",TA98,"500 µg/plate, without S9, methanol",,revertant colonies per plate,24.7 ± 6
Fc1ccc(C2=CCNCC2)cc1,Salmonella typhimurium,SOS/umu test,"TA1535/pSK1002, TGA medium","0.25 mg/mL, 4 h, together with: 10% rat liver S9",,survival,97.5%
Cc1cc(C(=O)NC(C)(C)COc2cccc3c2C(N)=NS(=O)(=O)N3)cc(C)n1,Escherichia coli,"Ames test, confirmatory",WP2 uvrA,"1000 µg/plate, together with: rat liver S9",reference: solvent control,revertant ratio,1.1
CC[C@H](C)[C@H](NC(=O)[C@H](CCCCN)NC(=O)[C@@H](NC(=O)[C@H](Cc1ccc(O)cc1)NC(=O)[C@H](CCCCN)NC(=O)[C@H](CCCCN)NC(=O)CNC(=O)[C@H](CCCCN)NC(=O)[C@@H](NC(=O)[C@H](C)NC(=O)[C@H](CC(C)C)NC(=O)[C@H](Cc1c[nH]c2ccccc12)NC(=O)CNC(=O)[C@@H](NC(=O)[C@H](Cc1ccccc1)NC(=O)[C@H](CCCCN)NC(=O)[C@H](CC(C)C)NC(=O)[C@H](Cc1ccccc1)NC(=O)[C@H](C)NC(=O)CNC(=O)[C@@H](N)CCSC)C(C)C)[C@@H](C)O)C(C)C)C(=O)N[C@@H](C)C(=O)N[C@@H](Cc1c[nH]c2ccccc12)C(=O)N[C@@H](CC(=O)O)C(=O)N[C@@H](Cc1c[nH]cn1)C(=O)N[C@@H](CCCCN)C(=O)NCC(=O)N[C@H](C(=O)N[C@H](C(=O)N[C@@H](CCSC)C(=O)N[C@@H](CCCCN)C(=O)N[C@@H](Cc1c[nH]c2ccccc12)C(=O)N[C@@H](CC(C)C)C(=O)N[C@@H](CC(N)=O)C(=O)N[C@@H](C)C(=O)NCC(=O)N[C@@H](CCC(N)=O)C(=O)N[C@H](C(=O)N[C@@H](Cc1ccccc1)C(=O)N[C@H](C(=O)N[C@@H](Cc1c[nH]c2ccccc12)C(=O)N[C@H](C(=O)N[C@@H](Cc1ccc(O)cc1)C(=O)N[C@@H](CCC(=O)O)C(=O)N[C@@H](CCC(N)=O)C(=O)N[C@H](C(=O)N[C@@H](CCCCN)C(=O)N[C@@H](CCCCN)C(=O)N[C@@H](CC(C)C)C(=O)N[C@@H](Cc1c[nH]c2ccccc12)C(=O)N[C@H](C(=O)O)[C@@H](C)O)[C@@H](C)CC)C(C)C)[C@@H](C)O)[C@@H](C)O)[C@@H](C)CC)[C@@H](C)O,Pediococcus damnosus,,CECT 4797,after room temperature exposure,,MIC,98 µg/mL
[Cl-].[Cl-].[Pt+2].[Ru+2].c1ccc(-c2nc3cc4ccccc4cc3nc2-c2ccccn2)nc1.c1cnc2c(c1)ccc1cccnc12.c1cnc2c(c1)ccc1cccnc12,Danio rerio,,embryos,"60 µM, 48 h",,hatching rate,13.3 ± 4.6%
COc1ccnc(C(=O)N[C@H]2COC(=O)[C@H](Cc3ccccc3)[C@@H](OC(=O)C(C)C)[C@H](C)OC2=O)c1OCOC(=O)C(C)C,Oncorhynchus mykiss,flow-through,,96 h,,LC50,0.0022 µg/mL
COc1c(CCC[P+](c2ccccc2)(c2ccccc2)c2ccccc2)cc2c(c1OC)OCO2.[I-],RXF 393,SRB,,,,TGI,-4.93 log M
COC(=O)[C@H]1[C@@H](OC(=O)c2ccccc2)C[C@@H]2CC[C@H]1N2,,,"rat, whole blood","1000 nM, 4 months, -80 °C, long-term storage",,stability bias,12.2%
Oc1ccc2c3c1O[C@H]1[C@@H](O)CC[C@@]4(O)[C@@H](C2)N(CC2CCC2)CC[C@]314,"G-protein coupled receptor 83 (GPR83, Homo sapiens, UniProt Q9NYM4)","β-arrestin recruitment, TANGO luminescence, measured: GPR83",,concentration not given,reference: basal luminescence,log2 fold change,-0.011
C[C@@H]1OC(=O)[C@H](Cc2ccccc2)[C@H]1O,Oncorhynchus mykiss,"mortality, static-renewal water exposure",,96 h,,LC50,> 9.8 µg/mL
COc1ccc(N2C(=O)N(c3c(C)cccc3Cl)Cc3cnc(Nc4ccc(C5CCN(C)CC5)cc4OC)nc32)nc1,"cAMP-dependent protein kinase catalytic subunit PRKX (PRKX, Homo sapiens, UniProt P51817)",kinase activity,,0.5 µM,,inhibition,-3.54%
O=[N+]([O-])c1ccc(N2CCN(CCC(O)c3ccc(F)cc3)CC2)c(C(F)(F)F)c1 (stereo not drawn),Salmonella typhimurium,"SOS response, SOS/umu test",TA1535/pSK1002,"0.001 mg/mL, 4 h, without S9 activation",,umu induction factor,1.1
CC[C@H](C)[C@@H]1NC(=O)[C@@H]2CCCN2C(=O)[C@H](CC(C)C)NC(=O)[C@H](CC(C)C)NC(=O)CNC(=O)[C@@H](NC(=O)[C@@H](NC(=O)[C@H](CC(=O)O)NC(=O)CNC(=O)[C@@H](NC(=O)[C@H](C)NC(=O)CNC(=O)[C@H](CCCCN)NC(=O)[C@H](CC(C)C)NC(=O)[C@H](CC(C)C)NC(=O)[C@H](CCCCN)NC(=O)CNC(=O)[C@@H](NC(=O)[C@@H](N)CC(C)C)C(C)C)C(C)C)C(C)C)CSSC[C@@H](C(=O)O)NC1=O,,"RNA-seq, measured: Traf1","mouse, traumatic brain injury model, frontal cortex and hippocampus",dose not given,reference: TBI alone,log2 fold change,-2.15
CC(=O)N1CCC(C(=O)N2CCN3C(=O)c4cc(-c5ccccc5)ccc4NC(=O)C3C2)CC1 (stereo not drawn),Salmonella typhimurium,,TA1535,15.8 µg/plate,,revertants per plate,14.5
CC(C)C[C@@H]1NC(=O)[C@H](CC(C)C)NC(=O)[C@H](Cc2c[nH]c3ccccc23)NC(=O)[C@H](CO)NC(=O)[C@H](Cc2c[nH]c3ccccc23)NC(=O)[C@@H]2CCCN2C(=O)[C@H](CC(C)C)NC(=O)[C@H](Cc2c[nH]cn2)NC(=O)[C@@H]2CCCN2C(=O)[C@H](CC(N)=O)NC(=O)[C@H](C)NC(=O)[C@H](Cc2ccc(O)cc2)NC(=O)[C@H](CS)NC(=O)[C@H](CCCCNC(=O)CN2CCN(CC(=O)O)CCN(CC(=O)O)CCN(CC(=O)O)CC2)NC1=O [lutetium-177 labelled],,,"BALB/c mice, 4T1 tumour","iv, 3.7 MBq, 96 h, unblocked",,tumour uptake,4.79 %ID
CC[C@H](C)[C@H](NC(=O)[C@H](Cc1ccccc1)NC(=O)[C@H](CCC(=O)O)NC(=O)[C@H](CCCNC(=N)N)NC(=O)[C@H](C)NC(=O)[C@H](C)NC(=O)[C@H](CCC(N)=O)NC(=O)[C@H](CCC(=O)O)NC(=O)[C@H](CCC(=O)O)NC(=O)[C@H](CC(C)C)NC(=O)[C@H](Cc1ccc(O)cc1)NC(=O)[C@H](CO)NC(=O)[C@H](CO)NC(=O)[C@@H](NC(=O)[C@H](CC(=O)O)NC(=O)[C@H](CO)NC(=O)[C@@H](NC(=O)[C@H](Cc1ccccc1)NC(=O)[C@@H](NC(=O)CNC(=O)[C@H](CCC(=O)O)NC(=O)[C@H](C)NC(=O)CCc1c[nH]cn1)[C@@H](C)O)[C@@H](C)O)C(C)C)C(=O)N[C@@H](C)C(=O)N[C@@H](Cc1c[nH]c2ccccc12)C(=O)N[C@@H](CC(C)C)C(=O)N[C@H](C(=O)N[C@@H](CCCNC(=N)N)C(=O)NCC(=O)N[C@@H](CCCNC(=N)N)C(=O)N[C@@H](CCCCNC(=O)COCCOCCNC(=O)COCCOCCNC(=O)CC[C@H](NC(=O)CCCCCCCCCCCCCCCCC(=O)O)C(=O)O)C(=O)NCC(=O)NCC(=O)N[C@@H](CO)C(=O)N[C@@H](CCCCNc1c(NCCCCCN(O)C(=O)CCC(=O)NCCCCCN(O)C(=O)CCC(=O)NCCCCCN(O)C(C)=O)c(=O)c1=O)C(=O)O)C(C)C [zirconium-89 labelled],,,"rat, lung","iv, 3 nmol/kg, 72 h, ex vivo",,tissue uptake,1.09 %ID/g
COc1cccc(-c2n[nH]c(SCc3ccccn3)n2)c1OC,Escherichia coli,"Ames test, plate incorporation",WP2 uvrA,"1.0 mg/plate, with rat liver S9",,revertant colonies per plate,46
[Cl-].[Cl-].[Pt+2].[Ru+2].c1ccc(-c2nc3ccccc3nc2-c2ccccn2)nc1.c1cnc2c(c1)ccc1cccnc12.c1cnc2c(c1)ccc1cccnc12,Danio rerio,,embryos,"45 µM, 12 h",,survival rate,86.7 ± 3.3%
C[C@@H]1O[C@@H](O[C@H]2C[C@@H](O)[C@]3(CO)[C@H]4[C@H](O)C[C@]5(C)[C@@H](C6=CC(=O)OC6)CC[C@]5(O)[C@@H]4CC[C@]3(O)C2)[C@H](O)[C@H](O)[C@H]1O,Oncopeltus fasciatus,HPLC-UV,adult whole body,"diet, 0.59 mg/g dry diet",,sequestered amount,1.09 mg/g dry mass

# Excerpt of the above:
SMILES,target or system,assay,system,conditions,scale,endpoint,result
Cc1cc(C(=O)NC(C)(C)COc2cccc3c2C(N)=NS(=O)(=O)N3)cc(C)n1,Escherichia coli,"Ames test, confirmatory",WP2 uvrA,"1000 µg/plate, together with: rat liver S9",reference: solvent control,revertant ratio,1.1
